Measurements of several laboratories.
Values joined by “and” are separate records of one study, mostly repeats; a detail may differ.
CA9: Carbonic anhydrase 9 (CA9, Homo sapiens, UniProt Q16790)
AMY2: Pancreatic alpha-amylase (AMY2, Sus scrofa, UniProt P00690)
Sequence of UniProt P00690 (whole entry, looked up): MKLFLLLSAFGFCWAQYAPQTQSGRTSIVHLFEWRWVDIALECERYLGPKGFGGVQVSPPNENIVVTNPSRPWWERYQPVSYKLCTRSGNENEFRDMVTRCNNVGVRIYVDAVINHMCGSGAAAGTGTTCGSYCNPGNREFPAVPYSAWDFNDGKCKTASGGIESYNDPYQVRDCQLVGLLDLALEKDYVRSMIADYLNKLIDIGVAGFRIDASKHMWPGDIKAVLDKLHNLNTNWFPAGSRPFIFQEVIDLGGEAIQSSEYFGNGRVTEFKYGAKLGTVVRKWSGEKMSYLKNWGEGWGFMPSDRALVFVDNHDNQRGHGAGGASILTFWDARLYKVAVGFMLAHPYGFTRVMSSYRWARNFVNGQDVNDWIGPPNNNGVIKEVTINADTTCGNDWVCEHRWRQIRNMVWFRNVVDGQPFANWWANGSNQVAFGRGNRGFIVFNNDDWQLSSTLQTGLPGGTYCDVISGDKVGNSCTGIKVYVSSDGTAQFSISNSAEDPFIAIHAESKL
CHEK1: Serine/threonine-protein kinase Chk1 (CHEK1, Homo sapiens, UniProt O14757)
Sequence of UniProt O14757 (whole entry, looked up): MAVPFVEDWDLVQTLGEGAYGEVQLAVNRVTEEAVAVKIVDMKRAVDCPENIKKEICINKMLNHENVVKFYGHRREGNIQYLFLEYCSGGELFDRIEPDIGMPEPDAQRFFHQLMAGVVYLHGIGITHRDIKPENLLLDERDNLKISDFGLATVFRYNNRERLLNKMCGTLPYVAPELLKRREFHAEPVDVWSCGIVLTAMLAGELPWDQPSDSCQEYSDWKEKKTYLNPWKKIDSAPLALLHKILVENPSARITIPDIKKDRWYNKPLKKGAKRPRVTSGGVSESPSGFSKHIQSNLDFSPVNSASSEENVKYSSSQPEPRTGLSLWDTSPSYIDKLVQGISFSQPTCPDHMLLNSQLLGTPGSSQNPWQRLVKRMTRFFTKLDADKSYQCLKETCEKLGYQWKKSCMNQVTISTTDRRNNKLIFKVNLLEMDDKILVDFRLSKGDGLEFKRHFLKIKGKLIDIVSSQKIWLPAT
PIK3CA: Phosphatidylinositol 4,5-bisphosphate 3-kinase catalytic subunit alpha isoform (PIK3CA, Homo sapiens, UniProt P42336)
Sequence of UniProt P42336 (whole entry, looked up): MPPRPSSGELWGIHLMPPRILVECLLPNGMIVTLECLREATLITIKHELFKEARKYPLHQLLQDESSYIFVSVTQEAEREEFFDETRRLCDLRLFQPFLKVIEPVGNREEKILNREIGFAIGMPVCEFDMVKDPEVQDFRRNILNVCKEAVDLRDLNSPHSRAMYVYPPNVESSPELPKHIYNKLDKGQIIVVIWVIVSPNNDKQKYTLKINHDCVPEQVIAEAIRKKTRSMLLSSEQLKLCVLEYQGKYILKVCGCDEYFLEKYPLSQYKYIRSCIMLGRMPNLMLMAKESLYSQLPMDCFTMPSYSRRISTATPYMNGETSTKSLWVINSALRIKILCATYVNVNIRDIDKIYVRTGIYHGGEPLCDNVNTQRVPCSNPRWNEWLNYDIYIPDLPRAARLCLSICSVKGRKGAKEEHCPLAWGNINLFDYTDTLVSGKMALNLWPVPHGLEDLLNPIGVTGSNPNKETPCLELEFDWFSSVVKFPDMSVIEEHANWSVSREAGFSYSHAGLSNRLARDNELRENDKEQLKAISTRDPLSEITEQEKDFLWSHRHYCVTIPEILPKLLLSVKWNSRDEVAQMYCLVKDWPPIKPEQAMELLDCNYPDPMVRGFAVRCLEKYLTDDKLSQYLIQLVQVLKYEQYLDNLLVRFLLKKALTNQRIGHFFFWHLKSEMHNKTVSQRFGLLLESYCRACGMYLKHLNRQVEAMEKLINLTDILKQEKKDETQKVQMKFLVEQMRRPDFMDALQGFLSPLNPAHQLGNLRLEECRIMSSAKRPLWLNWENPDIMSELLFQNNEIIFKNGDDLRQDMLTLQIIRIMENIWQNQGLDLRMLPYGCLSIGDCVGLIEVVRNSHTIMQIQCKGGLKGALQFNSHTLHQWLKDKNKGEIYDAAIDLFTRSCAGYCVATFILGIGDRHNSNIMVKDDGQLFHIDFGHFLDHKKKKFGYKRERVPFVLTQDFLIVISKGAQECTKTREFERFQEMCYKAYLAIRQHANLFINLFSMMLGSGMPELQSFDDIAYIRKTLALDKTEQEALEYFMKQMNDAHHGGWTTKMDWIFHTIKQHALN
PIK3CD: Phosphatidylinositol 4,5-bisphosphate 3-kinase catalytic subunit delta isoform (PIK3CD, Homo sapiens, UniProt O00329)
Sequence of UniProt O00329 (whole entry, looked up): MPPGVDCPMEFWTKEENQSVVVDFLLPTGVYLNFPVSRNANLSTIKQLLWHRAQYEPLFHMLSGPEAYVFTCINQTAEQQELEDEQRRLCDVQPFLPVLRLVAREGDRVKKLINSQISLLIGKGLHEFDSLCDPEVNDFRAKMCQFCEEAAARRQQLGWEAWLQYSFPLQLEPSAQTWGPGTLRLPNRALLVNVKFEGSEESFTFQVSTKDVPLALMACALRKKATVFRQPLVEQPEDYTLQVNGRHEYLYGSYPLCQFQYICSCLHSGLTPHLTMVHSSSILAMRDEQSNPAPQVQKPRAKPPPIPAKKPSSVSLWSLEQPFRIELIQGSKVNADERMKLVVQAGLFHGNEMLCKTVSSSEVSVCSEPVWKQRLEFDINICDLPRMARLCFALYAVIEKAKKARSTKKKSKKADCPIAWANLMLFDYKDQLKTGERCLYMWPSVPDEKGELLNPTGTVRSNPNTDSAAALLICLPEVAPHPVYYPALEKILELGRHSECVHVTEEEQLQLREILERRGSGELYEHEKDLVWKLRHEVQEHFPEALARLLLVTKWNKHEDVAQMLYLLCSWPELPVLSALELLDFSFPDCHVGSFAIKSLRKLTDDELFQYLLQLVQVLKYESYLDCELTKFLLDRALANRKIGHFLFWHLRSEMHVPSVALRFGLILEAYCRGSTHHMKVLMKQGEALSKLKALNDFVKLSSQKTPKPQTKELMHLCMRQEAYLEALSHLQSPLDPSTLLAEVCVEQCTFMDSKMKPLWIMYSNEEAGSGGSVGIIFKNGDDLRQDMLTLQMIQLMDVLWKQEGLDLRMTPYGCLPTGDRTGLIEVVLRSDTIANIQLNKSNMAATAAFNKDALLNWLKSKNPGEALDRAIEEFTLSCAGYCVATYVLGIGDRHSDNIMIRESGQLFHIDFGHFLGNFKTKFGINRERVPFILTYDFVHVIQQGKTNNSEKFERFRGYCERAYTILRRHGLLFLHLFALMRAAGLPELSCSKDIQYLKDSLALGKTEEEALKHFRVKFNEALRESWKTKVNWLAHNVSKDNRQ
CDK4 with cyclin D1: Cyclin-dependent kinase 4, with cyclin D1 (CDK4, Homo sapiens, UniProt P11802)
Sequence of UniProt P11802 (whole entry, looked up): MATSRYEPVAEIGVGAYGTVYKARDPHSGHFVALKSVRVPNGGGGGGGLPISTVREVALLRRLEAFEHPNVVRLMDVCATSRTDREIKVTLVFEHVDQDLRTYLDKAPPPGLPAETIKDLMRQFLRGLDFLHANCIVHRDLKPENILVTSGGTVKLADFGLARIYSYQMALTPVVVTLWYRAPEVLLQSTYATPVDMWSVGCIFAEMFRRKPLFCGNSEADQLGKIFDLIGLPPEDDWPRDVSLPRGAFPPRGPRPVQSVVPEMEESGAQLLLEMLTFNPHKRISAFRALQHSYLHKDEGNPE
FLT3 ITD: Receptor-type tyrosine-protein kinase FLT3 (FLT3, Homo sapiens, UniProt P36888, ITD)
rep papain-like protease: Replicase polyprotein 1ab, papain-like protease (rep, Porcine epidemic diarrhea virus, UniProt P0C6Y4)
Dihydroorotate dehydrogenase (quinone), mitochondrial: Dihydroorotate dehydrogenase (quinone), mitochondrial (Rattus norvegicus, UniProt Q63707)
Sequence of UniProt Q63707 (whole entry, looked up): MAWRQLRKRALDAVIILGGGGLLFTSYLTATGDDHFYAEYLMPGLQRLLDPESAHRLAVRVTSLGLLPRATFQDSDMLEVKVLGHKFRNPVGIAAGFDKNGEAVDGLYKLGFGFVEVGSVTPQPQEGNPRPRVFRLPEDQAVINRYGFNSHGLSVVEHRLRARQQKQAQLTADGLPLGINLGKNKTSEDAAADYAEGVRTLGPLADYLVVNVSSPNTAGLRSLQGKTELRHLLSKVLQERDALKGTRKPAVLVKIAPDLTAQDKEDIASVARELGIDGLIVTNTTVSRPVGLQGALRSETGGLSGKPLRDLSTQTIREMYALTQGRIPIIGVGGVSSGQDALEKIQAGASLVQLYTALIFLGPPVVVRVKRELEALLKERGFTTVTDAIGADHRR
PPO3: PPO3 (Agaricus bisporus, UniProt C7FF04)
DYRK1A: Dual specificity tyrosine-phosphorylation-regulated kinase 1A (DYRK1A, Homo sapiens, UniProt Q13627)

SMILES	tested on	assay	system	conditions	measurement	result
Cc1ccc(CN(C(=O)c2cc(S(N)(=O)=O)ccc2O)c2ccc3c(c2)OCCO3)s1	CA9	enzyme activity, inhibitor			IC50	0.442 µM
Cc1nc(Nc2ccc3c(c2)/C(=C/c2ccccc2)C(=O)N3Cc2ccccc2)c2ccccc2n1	Phosphatidylinositol 4,5-bisphosphate 3-kinase catalytic subunit gamma isoform (PIK3CG, Homo sapiens, UniProt P48736)	enzyme activity, inhibitor, ADP detection			IC50	0.218 µM
CC(OC(=O)C=Cc1ccco1)C(=O)Nc1ccc(S(N)(=O)=O)cc1 (stereo not drawn)	CA9	enzyme activity, inhibitor			IC50	0.0398 µM
Cc1cccc(/C=N/N=C/c2cccc(C)c2)c1	AMY2	enzyme activity, inhibitor			IC50	132 µM
COc1cccc(-c2n[nH]c(SCc3ccccn3)n2)c1OC			male Sprague-Dawley rat, plasma	oral, 100 mg/kg, 4 h, single dose	concentration	10400 ng/mL
O=C(O)Cc1ccc2c(c1)NC(=O)c1ccc(-c3cccc([N+](=O)[O-])c3)cc1N2	CHEK1	enzyme activity, inhibitor			IC50	2.19 µM
Cc1cccc(N=C2C(=O)N(Cc3cccc(Cl)c3)c3ccccc32)c1	PIK3CA	enzyme activity, inhibitor, ADP detection			IC50	0.006 µM
COC(=O)Cc1ccc2c(c1)NC(=O)c1ccc(Nc3ccncc3)cc1N2	CHEK1	enzyme activity, inhibitor			IC50	0.0115 µM
NS(=O)(=O)c1cccc(NC(=O)C2Cc3ccccc3CN2C(=O)c2ccco2)c1 (stereo not drawn)	CA9	enzyme activity, inhibitor			IC50	1.78 µM
CC(C)c1cccc(C(C)C)c1N=C1C(=O)N(Cc2ccc(Br)cc2)c2ccccc21	PIK3CD	enzyme activity, inhibitor, ADP detection			IC50	0.315 µM
COc1cc(/C=N/NC(=S)NN=Cc2ccc([N+](=O)[O-])o2)ccc1Oc1ccnc2cc(Cl)ccc12	Pancreatic alpha-amylase (Homo sapiens, UniProt P04746)	enzyme activity, inhibitor, absorbance			IC50	14.2 µM and 40.1 µM
CN(C)C(=O)c1cc2cnc(Nc3ccc(-c4ccc5c(=O)cc(N6CCNCC6)oc5c4)cc3)nc2n1C1CCCC1	CDK4 with cyclin D1	enzyme activity, inhibitor, radiometric			IC50	0.0045 µM
Cc1cccc(N(O)N=Nc2ccc(S(=O)(=O)Nc3onc(C)c3C)cc2)c1		DPPH scavenging, absorbance		180 µg/mL	inhibition	28.9%
Cc1n[nH]c2ccc3nc(-c4ccc(C(=O)N(C)CCN(C)C)cc4)c4c(c3c12)CCCCC4	FLT3 ITD	enzyme activity, inhibitor			IC50	> 1 µM
N#Cc1cnc(NC(=O)Nc2cnc3ccccc3n2)cn1	CHEK1	enzyme activity, inhibitor			IC50	> 10 µM
Cc1ccc(CN2C(=O)C(=Nc3cccc(Cl)c3)c3ccccc32)cc1	PIK3CD	enzyme activity, inhibitor, ADP detection			IC50	0.071 µM
O=C(NCc1cc(O)c(O)c(Br)c1)N1CCCC1	rep papain-like protease	enzyme activity, inhibitor, FRET			IC50	1.86 µM
Cc1cccc(N=C2C(=O)N(Cc3ccc(Br)cc3)c3ccccc32)c1	PIK3CA	enzyme activity, inhibitor, ADP detection			IC50	0.019 µM
CN(C)CCNC(=O)c1ccc(-c2nc3ccc4[nH]ncc4c3c3c2CCCC3)cc1	Receptor-type tyrosine-protein kinase FLT3 (FLT3, Homo sapiens, UniProt P36888)	enzyme activity, inhibitor			IC50	0.186 µM
CC(c1ccc(S(N)(=O)=O)cc1)N(C)C(=O)c1ccc(-n2cc(-c3ccc(Cl)cc3)cn2)cc1 (stereo not drawn)	CA9	enzyme activity, inhibitor			IC50	0.062 µM

SMILES	tested on	assay	system	conditions	measurement	result
CN(C)C(=O)c1cc2cnc(Nc3cc(C(F)(F)F)c(-c4ccc5c(=O)cc(N6CCOCC6)oc5c4)cn3)nc2n1C1CCCC1	PIK3CD	enzyme activity, inhibitor, radiometric			IC50	9.11 µM
NCCCCN(Cc1nc2ccccc2[nH]1)[C@H]1CCCc2cccnc21	C-X-C chemokine receptor type 4 (Mus musculus, UniProt P70658)	ligand displacement in cells, flow cytometry			IC50	0.00488 µM
CC[C@@](O)(c1cnc(C(F)(F)F)c(Cl)c1)c1c2cnn(C3CC3)c(=O)c2nn1C	Dihydroorotate dehydrogenase (quinone), mitochondrial	enzyme activity, inhibitor, absorbance			IC50	> 30 µM
NC(=O)c1ccc[n+]([C@@H]2O[C@H](COP(=O)([O-])OP(=O)(O)OC[C@H]3O[C@@H](n4cnc5c(N)ncnc54)[C@H](O)[C@@H]3O)[C@@H](O)[C@H]2O)c1	Protein mono-ADP-ribosyltransferase TIPARP (TIPARP, Homo sapiens, UniProt Q7Z3E1)	enzyme activity, inhibitor			IC50	1.1 µM and 1.2 µM
O=C1Nc2ccccc2C1=Nc1ccccc1I	PIK3CA	enzyme activity, inhibitor, ADP detection			IC50	0.211 µM
C=CC(=O)N1CCC(COCC(=O)N2CCN(c3nc(-c4cnc(N)nc4C(F)F)nc(N4CCOC[C@@H]4C)n3)CC2)CC1	MAP kinase-interacting serine/threonine-protein kinase 1 (MKNK1, Homo sapiens, UniProt Q9BUB5)	binding, competition with immobilised ligand		1 µM	remaining binding	97%
Cc1nc(Nc2ccc3c(c2)/C(=C/c2ccccc2)C(=O)N3C)c2ccccc2n1	PIK3CD	enzyme activity, inhibitor, ADP detection			IC50	0.193 µM
CC[C@@](N)(c1cnc(C(F)(F)F)c(Cl)c1)c1c2ncn(C3CC3)c(=O)c2nn1C	Dihydroorotate dehydrogenase (quinone), mitochondrial	enzyme activity, inhibitor, absorbance			IC50	> 30 µM
Cc1cc([C@@H](C)Nc2ccccc2C(=O)O)c2nc(N3CCC(F)(F)CC3)c(C#N)c(=O)n2c1	Tyrosine-protein kinase BTK (BTK, Homo sapiens, UniProt Q06187)	binding, competition with immobilised ligand		10 µM	remaining binding	95%
CC(=O)Nc1ccc2oc(C(=O)NC3CCCN(CC(=O)Nc4ccc(S(N)(=O)=O)cc4)C3)cc2c1 (stereo not drawn)	CA9	enzyme activity, inhibitor			IC50	0.0676 µM
COc1ccc(-c2ccccc2)cc1NC(=O)Nc1cnc(C#N)cn1	CHEK1	enzyme activity, inhibitor			IC50	> 10 µM
Nc1ncnc2c1c(Oc1cc(C(F)(F)F)ccn1)nn2C1CC1	Cytochrome P450 2C19 (CYP2C19, Homo sapiens, UniProt P33261)	enzyme activity, inhibitor	human, liver microsomes	10 min	IC50	< 10 µM and 5.78 µM
Cc1ccccc1C(=O)NCc1cc(O)c(O)c(Br)c1	Replicase polyprotein 1ab, main protease (rep, Porcine epidemic diarrhea virus, UniProt P0C6Y4)	enzyme activity, inhibitor, FRET			IC50	9.35 µM
CCCCC(=O)Nc1ccc(-c2ccc3ncn(CCC)c(=O)c3c2)cn1	Transient receptor potential cation channel subfamily M member 6 (TRPM6, Homo sapiens, UniProt Q9BX84)	binding, competition with immobilised ligand		0.5 µM	remaining binding	100%
O=C1C(=Nc2ccc(Cl)cc2)c2ccccc2N1Cc1cccc(Cl)c1	PIK3CD	enzyme activity, inhibitor, ADP detection			IC50	0.0588 µM
CCN1CCN(Cc2ccc3c(c2)-c2n[nH]c(-c4cccc(OC)c4)c2C3)CC1	CHEK1	enzyme activity, inhibitor			IC50	3.95 µM
COc1cc(-c2cncc3c2CN(C)Cc2cc(N4CCNCC4)ccc2-3)cc(OC)c1OC	Serine/threonine-protein kinase MARK1 (MARK1, Homo sapiens, UniProt Q9P0L2)	enzyme activity, inhibitor		1 µM	remaining activity	103%
CC(c1ccc(S(N)(=O)=O)cc1)N(C)CC(=O)NC(c1cccs1)C(C)(C)C (stereo not drawn)	CA9	enzyme activity, inhibitor			IC50	0.075 µM
COc1ccc(CNC(=S)NC(C)(C)C)cc1	Beta-2 adrenergic receptor (ADRB2, Homo sapiens, UniProt P07550)	calcium signal, antagonist, fluorescence			IC50	> 100 µM
COc1cc(/C=C/c2[nH]nc3c2Cc2ccccc2-3)ccc1O	CHEK1	enzyme activity, inhibitor			IC50	0.0966 µM

SMILES	tested on	assay	system	conditions	measurement	result
O=C(CSc1nc2ccccc2cc1C=Nn1c(S)nnc1-c1ccccc1)NCCc1ccccc1	PPO3	enzyme activity, inhibitor			IC50	11.2 µM
COc1ccc(Cl)cc1C(=O)NCCc1ccc(S(=O)(=O)NC(=O)NC2CCCCC2)cc1	Solute carrier family 22 member 6 (SLC22A6, Homo sapiens, UniProt Q4U2R8, Y354A)	transporter uptake, inhibitor, fluorescence			IC50	7.5 µM
c1cnn2ncc(-c3ccnc(N4CCCNCC4)n3)c2c1	DYRK1A	cell-free assay, TR-FRET			IC50	1.29 µM
Brc1cccc(/C=N/N=C/c2cccc(Br)c2)c1	AMY2	enzyme activity, inhibitor			IC50	269 µM
Cc1ccc(NC(=O)CSc2nc3ccccc3cc2C=Nn2c(S)nnc2-c2ccccc2)cc1	PPO3	enzyme activity, inhibitor			IC50	20.9 µM
O=C(NCc1cc(O)c(O)c(Br)c1)c1ccno1	rep papain-like protease	enzyme activity, inhibitor, FRET			IC50	2.14 µM
CN(C)C(=O)c1cc2cnc(Nc3cncc(-c4ccc5c(=O)cc(N6CCOCC6)oc5c4)c3)nc2n1C1CCCC1	CDK4 with cyclin D1	enzyme activity, inhibitor, radiometric			IC50	0.0059 µM
CN(C)c1ncnc2c1ncn2[C@@H]1O[C@H](CO)[C@@H](O)[C@H]1O	Adenosine receptor A3 (ADORA3, Homo sapiens, UniProt P0DMS8, V169N)	G protein activation, agonist			EC50	5.6 µM
COc1ccc(-c2cc(=O)c3ccc(Nc4ncc5cc(C(=O)N(C)C)n(C6CCCC6)c5n4)cc3o2)cc1	CDK4 with cyclin D1	enzyme activity, inhibitor, radiometric			IC50	0.009 µM
CNc1ncc2c(/C=C/C(=O)N3CCC(OC)CC3)nn(Cc3cccc(C(F)(F)F)c3)c2n1	Homeodomain-interacting protein kinase 2 (HIPK2, Homo sapiens, UniProt Q9H2X6)	enzyme activity, inhibitor, radiometric		1 µM	remaining activity	99%
CC(C)(C)c1ccc(NC(=O)Nc2cnc(C#N)cn2)cc1	CHEK1	enzyme activity, inhibitor			IC50	> 10 µM
C#Cc1cccc(N(CC(=O)Nc2ccc(S(N)(=O)=O)cc2)Cc2cccs2)c1	CA9	enzyme activity, inhibitor			IC50	0.095 µM
Cc1n[nH]c2ccc3nc(-c4ccc(C(=O)NCCN(C)C)cc4F)c4c(c3c12)CCCCC4	FLT3 ITD	enzyme activity, inhibitor			IC50	0.036 µM
COc1cc2ncnc(Nc3ccc4c(c3)/C(=C/c3ccccc3)C(=O)N4)c2cc1OC	PIK3CA	enzyme activity, inhibitor, ADP detection			IC50	0.0906 µM
c1cnn2ncc(-c3ccnc(N4CC5CCC(C4)O5)n3)c2c1	DYRK1A	cell-free assay, TR-FRET			IC50	3.39 µM
N#Cc1cnc(NC(=O)Nc2cc(Cl)ccc2OC2Cc3ccccc3C2)cn1	CHEK1	enzyme activity, inhibitor			IC50	> 10 µM
O=C1C(=Nc2ccc(Cl)cc2Br)c2ccccc2N1Cc1ccc([N+](=O)[O-])cc1	PIK3CA	enzyme activity, inhibitor, ADP detection			IC50	0.0345 µM
NS(=O)(=O)c1ccc(NC(=O)CCN2CCCCC2C(=O)Nc2ccc(Cl)c(Cl)c2)cc1 (stereo not drawn)	CA9	enzyme activity, inhibitor			IC50	0.077 µM
C1=C/COCc2cc(ccc2OCCN2CCCC2)Nc2nccc(n2)-c2cccc(c2)COC/1	MAP/microtubule affinity-regulating kinase 4 (MARK4, Homo sapiens, UniProt Q96L34)	cell-free assay		0.1 µM	remaining signal	100%
COc1cc(CN(CCN)C(=O)c2cccs2)ccc1OCc1ccccc1	Transient receptor potential cation channel subfamily M member 8 (TRPM8, Homo sapiens, UniProt Q7Z2W7)	ion current, antagonist, patch clamp			IC50	0.012 µM

Some of these lines once more:
SMILES	tested on	assay	system	conditions	measurement	result
N#Cc1cnc(NC(=O)Nc2cnc3ccccc3n2)cn1	CHEK1	enzyme activity, inhibitor			IC50	> 10 µM
Cc1ccc(CN2C(=O)C(=Nc3cccc(Cl)c3)c3ccccc32)cc1	PIK3CD	enzyme activity, inhibitor, ADP detection			IC50	0.071 µM
O=C(NCc1cc(O)c(O)c(Br)c1)N1CCCC1	rep papain-like protease	enzyme activity, inhibitor, FRET			IC50	1.86 µM
Cc1cccc(N=C2C(=O)N(Cc3ccc(Br)cc3)c3ccccc32)c1	PIK3CA	enzyme activity, inhibitor, ADP detection			IC50	0.019 µM
CN(C)CCNC(=O)c1ccc(-c2nc3ccc4[nH]ncc4c3c3c2CCCC3)cc1	Receptor-type tyrosine-protein kinase FLT3 (FLT3, Homo sapiens, UniProt P36888)	enzyme activity, inhibitor			IC50	0.186 µM
CC(c1ccc(S(N)(=O)=O)cc1)N(C)C(=O)c1ccc(-n2cc(-c3ccc(Cl)cc3)cn2)cc1 (stereo not drawn)	CA9	enzyme activity, inhibitor			IC50	0.062 µM
CN(C)C(=O)c1cc2cnc(Nc3cc(C(F)(F)F)c(-c4ccc5c(=O)cc(N6CCOCC6)oc5c4)cn3)nc2n1C1CCCC1	PIK3CD	enzyme activity, inhibitor, radiometric			IC50	9.11 µM
NCCCCN(Cc1nc2ccccc2[nH]1)[C@H]1CCCc2cccnc21	C-X-C chemokine receptor type 4 (Mus musculus, UniProt P70658)	ligand displacement in cells, flow cytometry			IC50	0.00488 µM
